Measurements of several laboratories.
A part holds a random share of what one study measured.

Block 1
Target: Prothrombin, mature alpha-thrombin (F2, Homo sapiens, UniProt P00734)
Technique: aptamer microarray, sandwich
Molecule type: DNA with 2'F-ANA
Medium: in vitro
Tested at: 200 nM
Setting: whole 15-mer aptamer, many near background
With: Cy3 exosite-II aptamer, 400 nM
Direction: higher = stronger binding
Sequence: GGTTGGTGTGGTTGG
Modification | mean fluorescence intensity
2'F-ANA at 1 6 11 13 | 126 a.u.
2'F-ANA at 3 5 6 10 11 13 14 | 48.8 a.u.
2'F-ANA at 6 7 8 9 10 11 13 | 139 a.u.
2'F-ANA at 1 2 3 4 10 11 12 14 | 49.2 a.u.
2'F-ANA at 4 5 7 8 9 11 12 15 | 104 a.u.
2'F-ANA at 1 5 6 7 11 12 14 15 | 46.8 a.u.
2'F-ANA at 1 5 6 7 8 10 11 12 13 | 52.2 a.u.
2'F-ANA at 1 2 3 6 13 | 169 a.u.
2'F-ANA at 3 7 10 12 13 | 973 a.u.
2'F-ANA at 1 4 5 7 9 10 13 15 | 47.2 a.u.
2'F-ANA at 1 2 4 8 10 11 14 15 | 48.7 a.u.
2'F-ANA at 1 6 8 10 13 | 51.5 a.u.
2'F-ANA at 1 3 5 13 | 63 a.u.
2'F-ANA at 1 5 6 9 13 | 51.6 a.u.
2'F-ANA at 1 2 3 5 6 9 12 | 126 a.u.
2'F-ANA at 1 4 6 9 10 12 13 15 | 64.6 a.u.
2'F-ANA at 3 4 6 8 9 11 12 13 15 | 478 a.u.
2'F-ANA at 1 2 3 4 6 7 9 10 12 13 | 66 a.u.
2'F-ANA at 2 5 7 12 14 15 | 49.8 a.u.
2'F-ANA at 2 3 4 7 11 12 14 15 | 349 a.u.
2'F-ANA at 4 5 10 11 12 13 | 48.9 a.u.
2'F-ANA at 3 5 6 7 8 11 14 15 | 54.5 a.u.
2'F-ANA at 2 5 6 9 10 11 12 13 | 61.9 a.u.
2'F-ANA at 1 5 6 9 10 11 13 14 | 50.5 a.u.
2'F-ANA at 1 3 4 7 15 | 272 a.u.

Block 2
Target: Ras GTPase-activating protein-binding protein 1, RRM domain (G3BP1, Homo sapiens, UniProt Q13283)
Chain of UniProt Q13283 (whole entry, looked up): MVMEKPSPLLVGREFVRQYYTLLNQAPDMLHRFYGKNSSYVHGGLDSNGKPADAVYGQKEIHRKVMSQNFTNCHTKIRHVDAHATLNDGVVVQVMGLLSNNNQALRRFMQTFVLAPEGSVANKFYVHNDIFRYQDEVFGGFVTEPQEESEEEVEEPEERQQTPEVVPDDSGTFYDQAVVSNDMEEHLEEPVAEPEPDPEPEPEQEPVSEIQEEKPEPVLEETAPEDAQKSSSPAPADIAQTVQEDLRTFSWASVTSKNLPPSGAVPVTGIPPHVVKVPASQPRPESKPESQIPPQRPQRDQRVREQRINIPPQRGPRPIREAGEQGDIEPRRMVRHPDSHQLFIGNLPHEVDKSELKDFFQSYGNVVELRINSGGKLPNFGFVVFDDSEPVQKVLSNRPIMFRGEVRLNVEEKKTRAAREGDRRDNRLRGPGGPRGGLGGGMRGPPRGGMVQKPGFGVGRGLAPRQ
Technique: RNA Bind-n-Seq
Molecule type: RNA
Medium: in vitro
Tested at: 1 µM
Setting: whole 134-nt RNA, ends assumed
With: 150 mM KCl
Reference: input library
Direction: higher = stronger binding
All sequences stand within: GGGAGUUCUACAGUCCGACGAUC … UGGAAUUCUCGGGUGUCAAGG
Sequence | log2 enrichment
UGGCCCUGGUGGCAUGCGGGGAGGAAGAGGUCGCCUCAUGGAUCGUGGUGGUCCCGGUGGAAUGUUCAGAGGUGGCCGUGGUGGAGACAG | 0.754
UAACUUUAGAGGAGGAUCUGAUGGAUAUGGCAGUGGACGUGGAUUUGGGGAAGGCUAUAAUGGGUAUGGAGGAGGACCUGGAGGUGGCAA | -0.217
ACCAUGCAGGUGGGCAUCUUUGGGAAGUGGGGCAAGGGGGGGAUAGGGAGGGGGGUAACAUUUUGGGAACAGGUGGUCCCAGGUCGUUUC | 0.849
CCUGCUUUUGGGGGUGACCGCCGGAGCGCGGCGUGAGCCCUCCCCCUUGGGAUCCCGCAGCUGACCAGUCGCGCUGACGGACAGACAGAC | -0.612
UAACUUUAGAGGAGGAUCUGAUGGAUAUGGCAGUGGACGUGGAUUUGGGGAUGGCUAUAAUGGGUAUGGAGAAGGACCUGGAGGUGGCAA | -0.3
CCUGUGCUACACAUCGUAUGUACCGAAUCGGGGUUUUUGGGGAAAAAAAGGGGUUUGGGGAAAGUAUUAUGUUACGCCGUUCGGAUCUGC | 0.675
CACAGACAACACGCACCCACACAGACACAGAGGGAAGGGGUUGGGAUGGGGACAGGGUCCACAGCAGGGCGGGGUAGGACCCCAGCCCCU | -0.0854
AAGUCCUGUGCUACACAUCGUAUGUACCGAAUCGGGGUUUUUGGGGUGGGGAGGGGAAAGUAUUAUGUUACGCCGUUCGGAUCUGCACUU | 0.788
AAGUCCUGUGCUACACAUCGUAUGUACCGAAUCGGGAAAAAGGGUGGGUUUUUGGGAAAGUAUUAUGUUACGCCGUUCGGAUCUGCACUU | 0.784
UCAAGUCCUGUGCUACACAUCGUAUGUACCGAAUCGGGGCCGGGGCCGGGGCCGGAAAGUAUUAUGUUACGCCGUUCGGAUCUGCACUUC | -1.75
GCAGGAAGUAAAAACAAAUGGAAACGCUUCGGAUAGUGGCAGGGGUGGGGGUUGCUAAGGAAAGGGUGGGAUGGGAGUGGGUAAAGAGUU | 1.07
UGGGAGGUGGAUUUUGUUUAUUUUUUUAGCUCAUCUCCAGGGGUGGGAAUUUUUUUUUAAUAUGUGUCAUGAAUAAAGUUGUUUUUGAAA | 2.02
CUGUGCUACACAUCGUAUGUACCGAAUCGGGAAAAAAAGGGAAAAAAAGGAAAAAAAGGGGAAAGUAUUAUGUUACGCCGUUCGGAUCUG | 0.153
AAGUCCUGUGCUACACAUCGUAUGUACCGAAUCGGUUUGGAAAAAAAGGUUUUUGGAAAGUAUUAUGUUACGCCGUUCGGAUCUGCACUU | -0.326

Block 3
Target: Centromere-binding protein 1, full length, His-tagged (CBF1, Saccharomyces cerevisiae, UniProt P17106, residues 1-351)
Chain of UniProt P17106 (whole entry, looked up): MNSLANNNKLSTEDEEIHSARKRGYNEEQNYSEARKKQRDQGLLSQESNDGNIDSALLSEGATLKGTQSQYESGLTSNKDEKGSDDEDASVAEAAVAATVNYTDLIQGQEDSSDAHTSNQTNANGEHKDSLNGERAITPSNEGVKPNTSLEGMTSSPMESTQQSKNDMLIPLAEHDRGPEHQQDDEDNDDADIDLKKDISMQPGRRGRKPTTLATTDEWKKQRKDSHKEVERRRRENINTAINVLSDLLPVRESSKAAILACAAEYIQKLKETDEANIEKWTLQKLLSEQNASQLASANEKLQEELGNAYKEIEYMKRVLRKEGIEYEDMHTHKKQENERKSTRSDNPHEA
Technique: competition protein-binding microarray
Molecule type: double-stranded DNA, one strand shown
Medium: in vitro
Tested at: 2 µM
Setting: whole 60-bp probe, lowest competitor level
With: Pho4 competitor, 0.05 µM
Direction: higher = stronger binding
All sequences stand within: … GTCTTGATTCGCTTGACGCTGCTG
Sequence | fluorescence intensity
CCCTGCTGCCAGTCCCACGTGCAGACGCACCTGCAG | 626 a.u.
AAAAAAGACGTAAAGCACGTGAAATAAGGAGATTAC | 1000 a.u.
GCCAAGCCCCTTCATCATGTGCCACTCCACATAACA | 262 a.u.
CTTCTGTAAATTTGTACAGTGGGTGGACGCGCCCCG | 98.8 a.u.
GACAGTCTTAGTGTAGACATGACAGTTCTTGGTGGC | 68.7 a.u.
AAATTACTAAGTTGTGGGGTGGGTGACGCCGTATGA | 83.1 a.u.
TGTCTTGTAATACCTTTTTTTTTAACTTTTTCAAGA | 75.9 a.u.
CTAACGAAGGTTTGTCACAAGACTTACAAGCCAAGT | 112 a.u.
CATACCCAACCTTTTCACGTGCGTTAAGATATTTGT | 963 a.u.
AAAGCGGTAATTTCGCACGTGTTTTCACATATCTAT | 1520 a.u.
GGAGTGAAAAGGGCGCTCAAAAATAGGCATATCTCA | 66 a.u.
CTTCTGTAAATTTGAGCCGTGGGTGGACGCGCCCCG | 79.9 a.u.
TGCGCAACAACTTGACACGTGGGTGTATGTCTAGAA | 1040 a.u.
CATACCCAACCTTGCTGGGTGGGTGAAGATATTTGT | 71.1 a.u.
GTCTTGTCTCATTGGCCCGTGGGTGTCCCCACTTCA | 86.9 a.u.
CGTCCTAGCGATTGAGTTGTGGGTGCCATGAGGAAG | 74.6 a.u.
CCGGGAAATCGCTGGCACGCACAGCATATAGAGTAG | 74.5 a.u.
AGTGTGGTCTTGGCTCTCGTGCCAGCTGCCTCCGTA | 65 a.u.
ATTTTCTTGGTCGACCACGTGCCGACCTTAAAGCAG | 2770 a.u.
AAGCGGATGGACTGGCACGCTCACCATCTGGGTTGG | 47.4 a.u.
TGATGATATAAGGTCCACGTGATGGCATTTCAATCT | 3250 a.u.
CGGGGTTAAGTTTTCCACGTGTTTTGCTTGCAGCAG | 598 a.u.
CGGGGTTAAGTTTGGAATGTGGGTGGCTTGCAGCAG | 66.4 a.u.
CTCACAGATCTTCAACACGTGAAGATCGGTTGCATT | 876 a.u.
ATCTTGTTGCTGTTCTACGTGCTTTAGTGTAGTATT | 78.7 a.u.

Block 4
Target: RNA binding protein fox-1 homolog 2, RRM domain, GST-SBP tag (RBFOX2, Homo sapiens, UniProt O43251-10, residues 100-194)
Technique: RNA Bind-n-Seq
Molecule type: RNA
Medium: in vitro
Tested at: 365 nM
Setting: natural RNA segment, single round, ends assumed
Reference: no-protein control
Direction: higher = stronger binding
All sequences stand within: GGGAGUUCUACAGUCCGACGAUC … UGGAAUUCUCGGGUGCCAA
Construct (chain): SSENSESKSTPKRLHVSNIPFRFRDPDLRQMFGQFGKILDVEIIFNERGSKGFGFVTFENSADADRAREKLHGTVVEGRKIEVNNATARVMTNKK
Sequence | RBNS enrichment (R)
CACUAGUGACCACUCCCUGAGAGGCCGCAAUCAGGUGGGAAUGAAAAGGCCUCCUCCAGCGGGGCAGGCUGCUCAGUGUGGGUGGCAAGUUGUAGCCCAGCUGGAGGACA | 0.323
CCUUUCAGCAGUUAUGUAGCCUGUAUUCAAUGGUAGGAAAUUACAGGAAAAAAAGUUCUAAGCUUCUUAUGUGGUCCACAAGGAAUCCAUAUUUGAGAAACAUGAUUAGG | 0.695
GGACGAGGUCAAGGAGAUAUGAUAGGCCCGGAAGUUGCUGUGCCCCAUCAGCAGCUUGACGCGUGGUCACAGGACGAUUUCACUGACACUGCGAACUCUCAGGACUACCG | 0.406
CCCCUUCUCUCCUCCUCUGCCUCACUUCUUUAGUAAUCCCAACCCUAUAAAAAUGAACCUAAUGGGUGGAUUGAAUAUACAUUGAGCCCAAAGUCAAGUUUGGGGAAAAG | 0.472
AAAAAAGAAUUUUGUAUGUUGUGGCAUUUAAUCAUUUCAUGUUCAGUAACAAAUGAUAUUUUUGUUAAAUGGACGAGGAGUCCAUUCACGCACGCUCUACUUUGAUAUUA | 0.965
CCCCUCUGCUUCAGGAAGGCCCUAUAGGGCCCACCUUCCCGCCCUGCCCACCUGGCCUUUGCACUUCACCCUCACCAGCUACUGGCCACCAUUCAGUCUCCCCCUUUUCC | 0.976
CCAUUUGGUUAGCAGACAGUGACAGCUGAGCAGGUCUGAGCACUACUGUGUCAUAGUGGACCCUGACUGCAGGAGUCAGGCCUCUCAGCCCAGGGCAGAUGCUGCCUUUA | 0.577
UUUUGCCAAUAUAAUGAGUAUUACAUUGGCCUUGGGGGACAGAAAGGAGGAAGUUCUGACUUUUCAGGGCUACCUUAUUUCUACUAAGGACCCAGAGCAGGCCUGUCCAU | 0.227
AGCUCAAAUAAUCCUGAUGCAAUAUGUAUUUAGGAUAAUUUUUAAAUGGCUAAAUAUGACAUGACUGUAUUAUAGCUAUAUUUCUGAGGCUUUUUUUGUAUUUUAUUAAU | 1.15
GAAUUCCCUUUUGUGCCAGAUGCCAGUACUGUCUGCCCAUUGGCUCCAGGGGCUGUAUGGGCAGAUUCAGUCUCCAGAGGGUAUUCAGAUCAUCUGCUUCUUUGAAGGAG | 0.227
UCAUGUCUGUCCCAUUCCUAUACCAUCCCCACCCUGUUGUAUGUAUUAUAGGAUUUGUAUUUUCUCCUUUUUUUUCCCCCUUCCAUUCCUUCUCCCCUCUUGCAUUCAAG | 1.7
AGGAGCUGUGCUCCUCAGAGGGCAGAAUCUACAUUAAGUGCCGCCCAAAGGAGAGUGCGUUGUCAUAGAAACCACAUAAAACUAUCCUUCCAGAGGCUUCACCACCUUGC | 0.296

Excerpt of the above (block 2):
Sequence | log2 enrichment
UGGCCCUGGUGGCAUGCGGGGAGGAAGAGGUCGCCUCAUGGAUCGUGGUGGUCCCGGUGGAAUGUUCAGAGGUGGCCGUGGUGGAGACAG | 0.754
UAACUUUAGAGGAGGAUCUGAUGGAUAUGGCAGUGGACGUGGAUUUGGGGAAGGCUAUAAUGGGUAUGGAGGAGGACCUGGAGGUGGCAA | -0.217
ACCAUGCAGGUGGGCAUCUUUGGGAAGUGGGGCAAGGGGGGGAUAGGGAGGGGGGUAACAUUUUGGGAACAGGUGGUCCCAGGUCGUUUC | 0.849
CCUGCUUUUGGGGGUGACCGCCGGAGCGCGGCGUGAGCCCUCCCCCUUGGGAUCCCGCAGCUGACCAGUCGCGCUGACGGACAGACAGAC | -0.612
UAACUUUAGAGGAGGAUCUGAUGGAUAUGGCAGUGGACGUGGAUUUGGGGAUGGCUAUAAUGGGUAUGGAGAAGGACCUGGAGGUGGCAA | -0.3
CCUGUGCUACACAUCGUAUGUACCGAAUCGGGGUUUUUGGGGAAAAAAAGGGGUUUGGGGAAAGUAUUAUGUUACGCCGUUCGGAUCUGC | 0.675
CACAGACAACACGCACCCACACAGACACAGAGGGAAGGGGUUGGGAUGGGGACAGGGUCCACAGCAGGGCGGGGUAGGACCCCAGCCCCU | -0.0854
AAGUCCUGUGCUACACAUCGUAUGUACCGAAUCGGGGUUUUUGGGGUGGGGAGGGGAAAGUAUUAUGUUACGCCGUUCGGAUCUGCACUU | 0.788
AAGUCCUGUGCUACACAUCGUAUGUACCGAAUCGGGAAAAAGGGUGGGUUUUUGGGAAAGUAUUAUGUUACGCCGUUCGGAUCUGCACUU | 0.784
